{"data": "Assay results from different studies", "RAD52": "DNA repair protein RAD52 homolog (RAD52, Homo sapiens, UniProt P43351)", "CSNK2A2": "Casein kinase II subunit alpha' (CSNK2A2, Homo sapiens, UniProt P19784)", "Ugcg": "Ceramide glucosyltransferase (Ugcg, Mus musculus, UniProt O88693)", "DRD3": "D(3) dopamine receptor (DRD3, Homo sapiens, UniProt P35462)", "note": "Compare with care: the assays were run in different laboratories. “And” joins repeats or separate records; there may be more than shown. ± gives the spread as reported."}
{"Structure (SMILES)": "CCCCN(CC)CCCNC(=S)Nc1ccc2nc(N3CCN(C)CC3)cc(C)c2c1", "target": "RAD52", "assay": "ssDNA annealing, fluorescence quenching", "IC50": "2 µM"}
{"Structure (SMILES)": "Cc1ccc(Nc2cc(NC3CC3)n3ncc(C#N)c3n2)cc1NC(=O)C1CC1", "target": "CSNK2A2", "assay": "target engagement in cells, BRET", "IC50": "2.7 µM"}
{"Structure (SMILES)": "CCCCOCCCCCN1C[C@H](O)[C@@H](O)[C@H](O)[C@H]1CO", "target": "Ugcg", "assay": "enzyme activity, inhibitor, fluorescence", "IC50": "4 µM"}
{"Structure (SMILES)": "OC[C@H]1c2[nH]cnc2[C@H](O)[C@@H](O)[C@@H]1O", "target": "Lysosomal alpha-glucosidase (GAA, Homo sapiens, UniProt P10253)", "setting": "pH 4.8", "IC50": "> 100 µM"}
{"Structure (SMILES)": "Cn1nc(-c2ccc(Cl)cc2)c2cc(C(=O)NCCCN3CCCC3)sc21", "target": "RAD52", "assay": "D-loop formation", "setting": "with: RAD52 450 nM", "IC50": "4.1 ± 0.14 µM"}
{"Structure (SMILES)": "CCCCOc1ccc(CC(=O)NO)cc1", "target": "Aldehyde dehydrogenase X, mitochondrial (ALDH1B1, Homo sapiens, UniProt P30837)", "assay": "enzyme activity, inhibitor", "IC50": "0.36 µM"}
{"Structure (SMILES)": "NNC1(c2nnnn2CCc2c[nH]c3ccccc23)CCN(C(=O)OCc2ccccc2)CC1", "target": "Endothiapepsin (EAPA, Cryphonectria parasitica, UniProt P11838)", "assay": "enzyme activity, inhibitor, fluorescence", "IC50": "75.7 µM"}
{"Structure (SMILES)": "OC[C@@H]1[C@@H](O)[C@H](O)[C@@H](O)CN1CCCCCOCc1ccc(-c2ccc3c(c2)OCO3)cc1", "target": "Ugcg", "assay": "enzyme activity, inhibitor, fluorescence", "IC50": "0.025 µM"}
{"Structure (SMILES)": "O=C1C(Cl)=C(NCCN2CCOCC2)C(=O)c2ncccc21", "target": "Protein arginine N-methyltransferase 3 (PRMT3, Homo sapiens, UniProt O60678)", "assay": "enzyme activity, inhibitor", "IC50": "1.5 µM"}
{"Structure (SMILES)": "OC[C@H]1[C@@H](O)[C@H](O)[C@@H](O)CN1CCCCCOCc1ccc(-c2ccccc2)cc1F", "target": "Ugcg", "assay": "enzyme activity, inhibitor, fluorescence", "IC50": "0.005 µM"}
{"Structure (SMILES)": "COc1ccc(CSc2ncccn2)cc1OS(=O)(=O)c1ccc([N+](=O)[O-])cc1", "target": "Apelin receptor (APLNR, Homo sapiens, UniProt P35414)", "assay": "β-arrestin recruitment, antagonist", "IC50": "3.1 µM and ~3 µM"}
{"Structure (SMILES)": "CC(C)CCC[C@@H](C)[C@H]1CC[C@H]2[C@@H]3CC=C4C[C@@H](OCCCCCN5C[C@H](O)[C@@H](O)[C@H](O)[C@@H]5CO)CC[C@]4(C)[C@H]3CC[C@]12C", "target": "Ugcg", "assay": "enzyme activity, inhibitor, fluorescence", "IC50": "1 µM"}
{"Structure (SMILES)": "N#C[C@@H]1CC(F)(F)CN1C(=O)CNC(=O)c1ccnc2ccc(OCCCN3CCN(C(=O)CN4CCN(CC(N)=O)CCN(CC(N)=O)CCN(CC(N)=O)CC4)CC3)cc12", "target": "Prolyl endopeptidase FAP (FAP, Homo sapiens, UniProt Q12884)", "assay": "enzyme activity, inhibitor, fluorescence", "IC50": "0.00681 µM"}
{"Structure (SMILES)": "Cc1cc(C)nc(NC(=S)N2CCN(c3ccc(C(F)(F)F)cn3)CC2)c1", "target": "GPD1 (Homo sapiens, UniProt P21695)", "assay": "enzyme activity, inhibitor", "IC50": "> 100 µM"}
{"Structure (SMILES)": "Fc1ccc(Nc2nc(NC3CCCCC3)c3cc(C(F)(F)F)ccc3n2)cc1F", "target": "Beta-2 adrenergic receptor (ADRB2, Homo sapiens, UniProt P07550, G162A)", "assay": "β-arrestin2 recruitment, antagonist, BRET", "test system": "HEK293", "setting": "mutant G162A, with: isoprenaline 1 µM", "IC50": "0.158 µM"}
{"Structure (SMILES)": "OC[C@@H]1[C@@H](O)[C@H](O)[C@@H](O)CN1CC(F)(F)CCCOCc1ccc(-c2ccccc2)cc1", "target": "Ugcg", "assay": "enzyme activity, inhibitor, fluorescence", "IC50": "1.25 µM"}
{"Structure (SMILES)": "Sc1ncnc2nc[nH]c12", "target": "CUGBP Elav-like family member 2, residues 40-212 (Homo sapiens, UniProt O95319)", "assay": "protein-RNA binding, inhibitor, fluorescence polarization", "setting": "200 nM protein, with: 10 nM RNA", "IC50": "29.5 ± 5.87 µM"}
{"Structure (SMILES)": "CCN(CC)CC(=O)Nc1cccc(-n2cc(-c3ccc4ccc(-c5cn(-c6cccc(NC(=O)CN(CC)CC)c6)nn5)cc4c3)nn2)c1", "target": "Interleukin-1 receptor-associated kinase 1 (IRAK1, Homo sapiens, UniProt P51617)", "assay": "enzyme activity, inhibitor", "IC50": "> 10 µM"}
{"Structure (SMILES)": "CCCCCCCOCCCCCN1C[C@H](O)[C@@H](O)[C@H](O)[C@H]1CO", "target": "Ugcg", "assay": "enzyme activity, inhibitor, C6-NBD-ceramide in situ", "test system": "RAW264.7", "setting": "with: C6-NBD-ceramide", "IC50": "0.3 µM"}
{"Structure (SMILES)": "CCCCc1nc2c([nH]1)[C@H](O)[C@@H](O)[C@H](O)[C@H]2O", "target": "sweet almond β-glucosidase", "assay": "inhibitor", "setting": "30 min, pH 6.8, with: p-nitrophenyl β-D-glucopyranoside", "IC50": "0.35 µM"}
{"Structure (SMILES)": "COc1cc(O)c2c(c1)CCC21CCC(OC(C)=O)CC1 (stereo not drawn)", "target": "Sucrase-isomaltase, intestinal (Si, Rattus norvegicus, UniProt P23739)", "assay": "enzyme activity, inhibitor, absorbance", "IC50": "1120 µM"}
{"Structure (SMILES)": "COc1ccccc1Nc1nc(NCCCO)c2ccccc2n1", "target": "RAD52", "assay": "D-loop formation", "setting": "with: RAD52 450 nM", "IC50": "4.8 ± 0.85 µM"}
{"Structure (SMILES)": "Cc1cc(NC2CCN(C)CC2)ccc1-c1cc2c(N3CCC[C@H](C(=O)NCc4ccc(OC(F)(F)F)cc4)C3)ncnc2[nH]1", "target": "Serine/threonine-protein kinase Chk2 (CHEK2, Homo sapiens, UniProt O96017)", "assay": "enzyme activity, inhibitor, ADP detection", "IC50": "> 8 µM"}
{"Structure (SMILES)": "OC[C@H]1[C@@H](O)[C@H](O)[C@@H](O)CN1CCCCCOCc1ccccc1-c1ccccc1", "target": "Ugcg", "assay": "enzyme activity, inhibitor, fluorescence", "IC50": "0.025 µM"}
{"Structure (SMILES)": "CC(=O)OC[C@H](COc1ccc(C(C)(C)c2ccc(OC[C@@H](CCl)OC(C)=O)cc2)cc1)OC(C)=O", "target": "Androgen receptor (AR, Homo sapiens, UniProt P10275)", "assay": "antagonist, nuclear translocation", "setting": "primary screen, top 100 µM", "IC50": "> 100 µM"}
{"Structure (SMILES)": "NC(=O)c1ccc(C(=O)NOCc2ccc(Sc3cccc(Cl)c3)c(C(F)(F)F)c2)cc1", "target": "Cytochrome P450 2B6 (CYP2B6, Homo sapiens, UniProt P20813)", "test system": "pooled human liver microsomes", "setting": "20 min", "IC50": "> 30 µM"}
{"Structure (SMILES)": "CCN(CC)CCCN(Cc1cc2cc3c(cc2[nH]c1=O)OCO3)C(=S)NCCCN(C)C", "target": "RAD52", "assay": "D-loop formation", "setting": "with: RAD52 450 nM", "IC50": "13.6 ± 0.64 µM"}
{"Structure (SMILES)": "Cc1ccc(NS(=O)(=O)c2c(C)[nH]c(C)c2C(=O)N2CCCC2)cc1F", "target": "DRD3", "assay": "β-arrestin recruitment, antagonist", "IC50": "23 µM"}
{"Structure (SMILES)": "COc1cc(N2CCOCC2)ccc1Nc1ncc(Cl)c(Nc2ccccc2NS(C)(=O)=O)n1", "target": "Epidermal growth factor receptor (EGFR, Homo sapiens, UniProt P00533, L858R)", "assay": "enzyme activity, inhibitor, TR-FRET", "IC50": "0.00783 µM"}
{"Structure (SMILES)": "CCn1nc(Cl)c2c1-c1cnc(N)c(c1)O[C@H](C)c1cc(F)ccc1-c1nn(C)cc1C2", "target": "High affinity nerve growth factor receptor (NTRK1, Homo sapiens, UniProt P04629)", "assay": "enzyme activity, inhibitor", "setting": "with: 1 mM ATP", "IC50": "0.155 µM"}
{"Structure (SMILES)": "C=CC(=O)Nc1cc(Nc2ncnc(Nc3ccc(F)c(Cl)c3)n2)c(OC)cc1N(C)CCN(C)C", "target": "Epidermal growth factor receptor (EGFR, Homo sapiens, UniProt P00533, L858R/T790M)", "assay": "enzyme activity, inhibitor", "IC50": "0.002 µM"}
{"Structure (SMILES)": "COc1ccc(Nc2cc(NC3CC3)n3ncc(C#N)c3n2)cc1", "target": "CSNK2A2", "assay": "target engagement in cells, BRET", "IC50": "1 µM"}
{"Structure (SMILES)": "COc1ccc(OC)c(Nc2nc(NCCO)c3ccccc3n2)c1", "target": "RAD52", "assay": "ssDNA annealing, fluorescence quenching", "IC50": "4.3 µM"}
{"Structure (SMILES)": "COc1cc(O)ccc1-c1c[nH]c2ncc(-c3cncc(C(=O)N(C)C)c3)cc12", "target": "Tyrosine-protein kinase ABL1 (ABL1, Homo sapiens, UniProt P00519)", "assay": "kinase activity, inhibitor, HTRF", "setting": "1 h preincubation, with: ATP 20 µM", "IC50": "0.0024 ± 0.0008 µM"}
{"Structure (SMILES)": "C=CC(=O)Nc1cc(Nc2ncnc(Nc3ccccc3C(C)(C)O)n2)c(OC)cc1N(C)CCN(C)C", "target": "Epidermal growth factor receptor (EGFR, Homo sapiens, UniProt P00533)", "assay": "EGFR phosphorylation, inhibitor", "test system": "A-431", "IC50": "0.0063 µM"}
{"Structure (SMILES)": "OC[C@@H]1[C@@H](O)[C@H](O)[C@@H](O)CN1CCCCCOCc1ccc(-c2ccncc2)cc1", "target": "Ugcg", "assay": "enzyme activity, inhibitor, fluorescence", "IC50": "2 µM"}
{"Structure (SMILES)": "Cc1ccc(NS(=O)(=O)c2c(C(=O)N3CCCC3)c(C)n(C)c2C)cc1Cl", "target": "DRD3", "assay": "β-arrestin recruitment, antagonist, PathHunter", "setting": "with: dopamine EC80", "IC50": "> 100 µM"}
{"Structure (SMILES)": "CNCc1ccc2c(c1)N(C(=O)OCc1c(F)c(F)c(F)c(F)c1F)[C@H](CNC(=N)N)[C@H]2NC(=O)C(=O)Nc1ccc(Cl)c(F)c1", "target": "env (Human immunodeficiency virus 1, UniProt Q2N0S5)", "assay": "HIV-1 infection", "test system": "Cf2Th-CD4/CCR5 cells", "setting": "48 h", "IC50": "15.7 µM"}
{"Structure (SMILES)": "COCC1CN(C2CCN(c3cc(OC)c(Nc4ncc(Br)c(Nc5ccc6c(c5P(C)(C)=O)OCCO6)n4)cc3C)CC2)C1", "target": "Epidermal growth factor receptor (EGFR, Homo sapiens, UniProt P00533, del746-750)", "assay": "enzyme activity, inhibitor, TR-FRET", "IC50": "0.00068 µM"}
{"Structure (SMILES)": "Cc1ccc(C(=O)Nc2ccnc(S(N)(=O)=O)c2)c(N2CCCC(F)(F)CC2)n1", "target": "Sodium channel protein type 11 subunit alpha (Homo sapiens, UniProt Q9UI33)", "assay": "ion current, inhibitor, patch clamp", "IC50": "> 33 µM"}
{"Structure (SMILES)": "Cc1nn(-c2cccc(N)c2)c(=O)c2cnc(Nc3ccc(N4CCNCC4)cc3)nc12", "target": "Casein kinase I isoform gamma-3 (CSNK1G3, Homo sapiens, UniProt Q9Y6M4)", "assay": "enzyme activity, inhibitor", "IC50": "> 10 µM"}
{"Structure (SMILES)": "COc1cc(C(=O)N[C@H](c2ccccc2)c2ccc3[nH]cnc3c2)c2ccccc2n1", "target": "Cytosolic phospholipase A2 (PLA2G4A, Homo sapiens, UniProt P47712)", "assay": "enzyme activity, inhibitor, fluorescence", "IC50": "2.32 µM"}
{"note": "A few entries again:"}
{"Structure (SMILES)": "OC[C@H]1c2[nH]cnc2[C@H](O)[C@@H](O)[C@@H]1O", "target": "Lysosomal alpha-glucosidase (GAA, Homo sapiens, UniProt P10253)", "setting": "pH 4.8", "IC50": "> 100 µM"}
{"Structure (SMILES)": "Cn1nc(-c2ccc(Cl)cc2)c2cc(C(=O)NCCCN3CCCC3)sc21", "target": "RAD52", "assay": "D-loop formation", "setting": "with: RAD52 450 nM", "IC50": "4.1 ± 0.14 µM"}
{"Structure (SMILES)": "CCCCOc1ccc(CC(=O)NO)cc1", "target": "Aldehyde dehydrogenase X, mitochondrial (ALDH1B1, Homo sapiens, UniProt P30837)", "assay": "enzyme activity, inhibitor", "IC50": "0.36 µM"}
{"Structure (SMILES)": "NNC1(c2nnnn2CCc2c[nH]c3ccccc23)CCN(C(=O)OCc2ccccc2)CC1", "target": "Endothiapepsin (EAPA, Cryphonectria parasitica, UniProt P11838)", "assay": "enzyme activity, inhibitor, fluorescence", "IC50": "75.7 µM"}
{"Structure (SMILES)": "OC[C@@H]1[C@@H](O)[C@H](O)[C@@H](O)CN1CCCCCOCc1ccc(-c2ccc3c(c2)OCO3)cc1", "target": "Ugcg", "assay": "enzyme activity, inhibitor, fluorescence", "IC50": "0.025 µM"}
